Results collected from several papers.
Every numbered part comes from another study and shows a few of its results, in no order.
UniProt Q8TBX8, sequence (whole entry, looked up): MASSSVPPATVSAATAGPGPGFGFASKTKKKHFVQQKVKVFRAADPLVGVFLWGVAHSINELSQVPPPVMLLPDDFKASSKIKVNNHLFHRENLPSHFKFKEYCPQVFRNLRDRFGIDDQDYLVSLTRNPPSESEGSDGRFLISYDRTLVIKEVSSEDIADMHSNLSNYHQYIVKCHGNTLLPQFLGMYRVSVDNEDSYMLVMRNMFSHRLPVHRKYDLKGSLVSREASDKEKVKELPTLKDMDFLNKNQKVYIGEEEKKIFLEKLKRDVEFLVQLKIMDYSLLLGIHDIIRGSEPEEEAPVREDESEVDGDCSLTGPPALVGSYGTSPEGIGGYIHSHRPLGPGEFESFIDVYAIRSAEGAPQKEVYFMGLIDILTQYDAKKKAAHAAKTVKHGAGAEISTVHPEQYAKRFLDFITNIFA
UniProt P42684, sequence (whole entry, looked up): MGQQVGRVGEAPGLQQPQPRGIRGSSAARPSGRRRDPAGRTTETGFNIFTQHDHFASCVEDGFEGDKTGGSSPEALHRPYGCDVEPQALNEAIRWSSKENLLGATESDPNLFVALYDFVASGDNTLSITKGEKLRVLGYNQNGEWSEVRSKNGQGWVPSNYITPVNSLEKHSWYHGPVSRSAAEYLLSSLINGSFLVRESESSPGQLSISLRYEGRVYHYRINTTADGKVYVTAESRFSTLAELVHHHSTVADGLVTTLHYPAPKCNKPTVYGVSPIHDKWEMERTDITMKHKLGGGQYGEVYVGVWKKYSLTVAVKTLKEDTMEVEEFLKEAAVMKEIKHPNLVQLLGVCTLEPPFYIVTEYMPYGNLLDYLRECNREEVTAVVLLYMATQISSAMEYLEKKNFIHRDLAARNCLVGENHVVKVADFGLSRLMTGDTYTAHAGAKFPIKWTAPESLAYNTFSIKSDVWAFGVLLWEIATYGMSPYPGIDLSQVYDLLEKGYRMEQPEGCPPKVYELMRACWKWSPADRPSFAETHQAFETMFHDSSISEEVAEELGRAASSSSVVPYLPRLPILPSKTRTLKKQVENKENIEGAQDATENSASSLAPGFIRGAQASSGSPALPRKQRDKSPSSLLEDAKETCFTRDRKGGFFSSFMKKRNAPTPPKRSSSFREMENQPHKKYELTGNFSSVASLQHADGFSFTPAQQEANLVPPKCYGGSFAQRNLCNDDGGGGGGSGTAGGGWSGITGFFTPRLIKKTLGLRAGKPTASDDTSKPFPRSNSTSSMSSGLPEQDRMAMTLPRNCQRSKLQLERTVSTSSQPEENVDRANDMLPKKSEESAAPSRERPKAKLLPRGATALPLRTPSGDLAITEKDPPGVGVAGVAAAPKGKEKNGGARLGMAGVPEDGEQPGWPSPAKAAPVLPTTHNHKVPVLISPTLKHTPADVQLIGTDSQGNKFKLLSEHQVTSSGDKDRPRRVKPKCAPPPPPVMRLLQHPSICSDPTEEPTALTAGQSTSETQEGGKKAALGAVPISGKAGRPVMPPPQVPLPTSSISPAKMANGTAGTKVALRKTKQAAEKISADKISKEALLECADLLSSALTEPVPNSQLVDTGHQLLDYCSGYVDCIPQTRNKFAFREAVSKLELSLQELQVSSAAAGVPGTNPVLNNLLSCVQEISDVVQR
UniProt O60285, sequence (whole entry, looked up): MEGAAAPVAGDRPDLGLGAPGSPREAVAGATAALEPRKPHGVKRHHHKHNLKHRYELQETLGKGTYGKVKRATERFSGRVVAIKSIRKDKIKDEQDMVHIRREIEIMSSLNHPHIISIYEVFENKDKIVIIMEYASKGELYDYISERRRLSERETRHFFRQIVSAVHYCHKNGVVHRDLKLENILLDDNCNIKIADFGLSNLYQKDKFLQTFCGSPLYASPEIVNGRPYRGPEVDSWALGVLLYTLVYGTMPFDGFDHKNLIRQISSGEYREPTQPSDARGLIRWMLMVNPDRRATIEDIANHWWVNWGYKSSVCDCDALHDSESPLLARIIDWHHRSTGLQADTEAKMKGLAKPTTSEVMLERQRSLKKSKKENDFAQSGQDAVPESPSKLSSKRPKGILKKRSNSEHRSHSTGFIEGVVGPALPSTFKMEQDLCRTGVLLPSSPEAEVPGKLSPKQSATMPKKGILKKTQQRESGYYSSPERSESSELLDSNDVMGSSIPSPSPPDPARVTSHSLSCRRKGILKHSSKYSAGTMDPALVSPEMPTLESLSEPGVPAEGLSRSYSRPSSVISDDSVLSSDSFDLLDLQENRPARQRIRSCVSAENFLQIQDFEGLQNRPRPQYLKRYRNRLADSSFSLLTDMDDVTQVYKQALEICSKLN
UniProt Q12866, sequence (whole entry, looked up): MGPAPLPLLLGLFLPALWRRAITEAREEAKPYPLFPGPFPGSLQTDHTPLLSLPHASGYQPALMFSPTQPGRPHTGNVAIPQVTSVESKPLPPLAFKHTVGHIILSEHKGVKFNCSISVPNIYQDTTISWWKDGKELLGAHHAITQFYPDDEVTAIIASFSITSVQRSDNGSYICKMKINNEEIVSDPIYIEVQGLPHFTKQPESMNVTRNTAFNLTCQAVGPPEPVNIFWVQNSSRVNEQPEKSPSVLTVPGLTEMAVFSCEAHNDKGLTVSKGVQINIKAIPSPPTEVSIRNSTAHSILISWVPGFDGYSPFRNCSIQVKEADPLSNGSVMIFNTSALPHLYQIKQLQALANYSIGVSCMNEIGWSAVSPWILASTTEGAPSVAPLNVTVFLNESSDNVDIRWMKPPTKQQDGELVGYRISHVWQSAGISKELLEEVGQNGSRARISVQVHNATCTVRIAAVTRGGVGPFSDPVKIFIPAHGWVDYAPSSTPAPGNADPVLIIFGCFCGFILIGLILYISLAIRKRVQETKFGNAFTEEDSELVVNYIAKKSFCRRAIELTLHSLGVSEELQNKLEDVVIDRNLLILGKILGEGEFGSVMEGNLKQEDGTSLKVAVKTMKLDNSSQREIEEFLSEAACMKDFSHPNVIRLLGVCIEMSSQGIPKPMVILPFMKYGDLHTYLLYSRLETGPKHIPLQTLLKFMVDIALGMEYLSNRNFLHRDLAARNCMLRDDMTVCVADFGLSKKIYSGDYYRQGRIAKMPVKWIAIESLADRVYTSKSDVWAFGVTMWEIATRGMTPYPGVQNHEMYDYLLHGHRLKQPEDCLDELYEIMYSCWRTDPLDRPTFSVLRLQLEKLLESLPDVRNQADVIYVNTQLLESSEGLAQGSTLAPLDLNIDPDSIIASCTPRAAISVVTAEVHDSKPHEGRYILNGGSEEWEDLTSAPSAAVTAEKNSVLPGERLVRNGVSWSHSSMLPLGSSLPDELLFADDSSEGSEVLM
UniProt Q99558, sequence (whole entry, looked up): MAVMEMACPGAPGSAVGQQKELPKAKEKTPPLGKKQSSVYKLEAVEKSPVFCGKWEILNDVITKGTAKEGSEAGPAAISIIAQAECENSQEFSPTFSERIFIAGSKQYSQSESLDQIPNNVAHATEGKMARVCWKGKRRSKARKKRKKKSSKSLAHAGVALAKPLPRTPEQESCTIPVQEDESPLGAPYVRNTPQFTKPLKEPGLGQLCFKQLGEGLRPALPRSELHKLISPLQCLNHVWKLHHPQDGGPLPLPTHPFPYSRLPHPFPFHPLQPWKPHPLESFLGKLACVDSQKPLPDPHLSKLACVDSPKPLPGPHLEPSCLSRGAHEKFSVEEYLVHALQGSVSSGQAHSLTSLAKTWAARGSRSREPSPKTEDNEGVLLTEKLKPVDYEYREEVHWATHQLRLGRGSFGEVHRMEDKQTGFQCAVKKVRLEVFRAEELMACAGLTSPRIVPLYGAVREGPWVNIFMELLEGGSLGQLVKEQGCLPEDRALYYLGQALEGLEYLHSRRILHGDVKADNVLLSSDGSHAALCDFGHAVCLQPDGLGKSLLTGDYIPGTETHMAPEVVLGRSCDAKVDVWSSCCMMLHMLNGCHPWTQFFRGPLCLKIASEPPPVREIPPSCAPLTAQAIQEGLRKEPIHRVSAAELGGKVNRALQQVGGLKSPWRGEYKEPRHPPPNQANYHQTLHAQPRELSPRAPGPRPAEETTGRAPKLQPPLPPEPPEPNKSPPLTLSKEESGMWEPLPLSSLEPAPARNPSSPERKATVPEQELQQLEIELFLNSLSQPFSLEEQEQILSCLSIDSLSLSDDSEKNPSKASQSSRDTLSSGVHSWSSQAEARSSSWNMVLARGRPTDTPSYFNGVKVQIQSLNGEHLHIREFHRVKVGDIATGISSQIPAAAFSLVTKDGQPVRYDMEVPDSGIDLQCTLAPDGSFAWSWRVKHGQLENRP
UniProt Q9HC98, sequence (whole entry, looked up): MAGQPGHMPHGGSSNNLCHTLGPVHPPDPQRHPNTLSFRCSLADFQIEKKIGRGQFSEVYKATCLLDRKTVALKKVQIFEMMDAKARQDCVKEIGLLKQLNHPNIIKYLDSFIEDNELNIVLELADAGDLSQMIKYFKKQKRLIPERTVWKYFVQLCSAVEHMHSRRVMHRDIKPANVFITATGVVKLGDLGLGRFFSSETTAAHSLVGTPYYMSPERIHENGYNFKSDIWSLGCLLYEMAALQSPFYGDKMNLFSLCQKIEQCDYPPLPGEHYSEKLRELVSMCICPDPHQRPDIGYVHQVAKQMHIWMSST

Set 1
SMILES: N#CC(=C(N)Sc1ccc(N)cc1)c1ccccc1C(F)(F)F
Read-out: enzyme activity
Mode: inhibitor
Concentration: 0.5 µM
Baseline: control
target	remaining activity [%]
CSNK1G3 (Homo sapiens, UniProt Q9Y6M4)	103
NEK1 (Homo sapiens, UniProt Q96PY6)	99
TAOK2 (Homo sapiens, UniProt Q9UL54)	101
MERTK (Homo sapiens, UniProt Q12866)	80.7
WEE1 (Homo sapiens, UniProt P30291)	73.8
RPS6KA2 (Homo sapiens, UniProt Q15349)	99.2
GSK3B (Homo sapiens, UniProt P49841)	102
FGFR3 (Homo sapiens, UniProt P22607)	98.5
MAP3K14 (Homo sapiens, UniProt Q99558)	111
ARAF (Homo sapiens, UniProt P10398)	98.8
NEK6 (Homo sapiens, UniProt Q9HC98)	101
TBK1 (Homo sapiens, UniProt Q9UHD2)	98.1
ABL2 (Homo sapiens, UniProt P42684)	101

Set 2
Structure (SMILES): COc1cc(-c2cn(C3CCc4ccccc4N(CC(F)(F)F)C3=O)nn2)ccc1-n1ccc(C)n1 (centres unmarked)
Concentration: 1 µM
target	test	remaining binding [%]
FGR (Homo sapiens, UniProt P09769)	cell-free assay, competition with immobilised ligand	90
Tyrosine-protein kinase ABL1, phosphorylated (ABL1, Homo sapiens, UniProt P00519, H396P)	cell-free assay, competition with immobilised ligand	70
CDC42BPG (Homo sapiens, UniProt Q6DT37)	competition binding	100
NUAK1 (Homo sapiens, UniProt O60285)	cell-free assay, competition with immobilised ligand	92
CHEK2 (Homo sapiens, UniProt O96017)	cell-free assay, competition with immobilised ligand	100
PIP4K2C (Homo sapiens, UniProt Q8TBX8)	cell-free assay, competition with immobilised ligand	100

Set 3
Target: BIRC6 UBC core domain (UniProt Q9NR09)
Technique: yeast two-hybrid
Matrix: yeast
Notes: mostly zero background
Baseline: not given
Direction: higher = stronger interaction
B1: RNF170 RING domain (UniProt Q96K19); chain TRQQFYTDMYCPICLHQASFPVETNCGHLFCGACIIAYWRYGSWLGAISCPICRQTVTLLLTVF
B2: IRF2BPL RING domain (UniProt Q9H1B7); chain SPMANSGPLCCTICHERLEDTHFVQCPSVPSHKFCFPCSRESIKAQGATGEVYCPSGEKCPLVGSNVP
B3: TRIM63 RING domain (UniProt Q969Q1); chain PMENLEKQLICPICLEMFTKPVVILPCQHNLCRKCANDIFQAANPYWTSRGSSVSMSGGRFRCPTCRHEVIMDRHGV
B4: PHF21A RING domain (UniProt Q96BD5); chain SPTSTDGDIHEDFCSVCRKSGQLLMCDTCSRVYHLDCLDPPLKTIPKGMWICPRCQDQMLKKEEAIPW
Residues (chain): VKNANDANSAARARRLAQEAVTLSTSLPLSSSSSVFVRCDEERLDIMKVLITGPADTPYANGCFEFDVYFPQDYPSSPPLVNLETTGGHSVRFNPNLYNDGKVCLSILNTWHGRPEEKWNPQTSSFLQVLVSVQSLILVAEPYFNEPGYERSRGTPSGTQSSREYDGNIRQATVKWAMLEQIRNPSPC
Sequence	lacZ reporter activity
B1 (RNF170 RING domain)	0
FASPPDSNFVCSVCHGVLKRPARLPCSHIFCKKCILRWLARQKTCPCCRKEVKRKKVVH (RNF151 RING domain (UniProt Q2KHN1))	0
QLRRLQEERTCKVCMDKEVSVVFIPCGHLVVCQECAPSLRKCPICRGIIKGTVRTF (BIRC2 RING domain (UniProt Q13490))	0
YWAMDSTFELCKICAESNKDVKIEPCGHLLCSCCLAAWQHSDSQTCPFCRCEIKGWEAVS (CBLC RING domain (UniProt Q9ULV8))	0
B2 (IRF2BPL RING domain)	0
B3 (TRIM63 RING domain)	0
B4 (PHF21A RING domain)	0
DAIPSLSECQCGICMEILVEPVTLPCNHTLCKPCFQSTVEKASLCCPFCRRRVSSWTRYH (RNF168 RING domain (UniProt Q8IYW5))	0

Set 4
Target: RING finger protein unkempt homolog, zinc fingers 1-6, GST-SBP tag (UNK, Homo sapiens, UniProt Q9C0B0, residues 30-357)
UniProt Q9C0B0, sequence (30-357, looked up): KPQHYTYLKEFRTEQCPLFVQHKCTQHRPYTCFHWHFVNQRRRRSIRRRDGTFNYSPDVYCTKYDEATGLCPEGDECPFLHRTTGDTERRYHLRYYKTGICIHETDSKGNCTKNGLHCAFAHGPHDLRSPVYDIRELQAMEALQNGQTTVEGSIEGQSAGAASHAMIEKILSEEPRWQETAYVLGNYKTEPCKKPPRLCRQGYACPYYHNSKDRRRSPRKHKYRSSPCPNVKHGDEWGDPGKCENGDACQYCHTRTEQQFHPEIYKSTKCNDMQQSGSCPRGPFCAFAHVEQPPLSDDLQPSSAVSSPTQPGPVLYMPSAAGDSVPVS
Technique: RNA Bind-n-Seq
Molecule type: RNA
Matrix: in vitro
Concentration: not given
Notes: RNA with constant flanks, ends assumed
Baseline: input RNA pool
Direction: higher = stronger binding
Constant ends, left off below: GGGAGUUCUACAGUCCGACGAUC … CAACAGAGGAUUGAGCAUCA
Oligonucleotide	bound/input enrichment
GAUGAAAUGGGCCUAGGAAAGACUCUUCAAACAAUUUCUCUUCUUGGGUACAUGAAACAUUACCGAAACAUUCCUGGGCCUCAUAUGGUUUUGGUUCCUAAGUCUACAUUACACAACUGG	0.198 ratio
UGGGGGAGUUCUAAAAACAGGUGGUAUCUGUUUUUAAUUAUAAAAUAAUAAACAUUUACCACCGAACAGUUACAAAGACAUGAAAAACACCUAAAACUCUACCACACACCUAGCCUUCCC	0.459 ratio
ACUUUUGGACUUGAUCAGUUGAAAACAAGAGAAGCCAUUGCCAUGCUACACAAAGAUGGCACCGAAUUUGCUUUUAAAGAGCCUAAUCCGCAAGGGGAGAGCCAUCCACCUUUAAAUUUG	0.171 ratio
GGUGCACCUUCAUUUGUUAGAUUAUAUCAGUACCCCAACUUUGCUGGACCUCAUGCAGCUUCCGCUAAUAAAAGUUUCUUUAAGGCAGAUAAAGUUACAAUGCUGUGGAAUAAAAAAGCU	1.21 ratio
CCUCCCCGGGCCACCCAGCCCGCCCAACUCCCAGCGGAGAGCAAGGUUUUCUUCUGUUUUCACCGCCAGCCAGAACAAUGUUCUACGCACAUUUUGUUCUCAGUAAAAGAGGGCCUCUGG	0.462 ratio
GUAUAUCAAGGAGUGAAGAAAGAUGGCUUUUUACAACCUCAUUUUUUGGCAGAACAGGAUACCGUUAUCAUUACCUAUGAUGUACUGCGUUCAGAAUUAAAUUAUGUCGAUAUCCCACAU	0.13 ratio
UGGGGCUCAUCUAAACUAGUUCCAGUGGGAUACGGAAUUAAGAAACUUCAAAUACAGUGUGCCGUUGAAGAUGAUAAAGUUGGAACAGAUAUGCUGGAGGAGCAGAUCACUGCUUUUGAG	0.114 ratio
UUAAGACUCACAUCAGAUUGGGCGAUGAUGCUCAAGAAACGAAAGUUUUGCUGGAAAAGCACCGAAAAUUUGUUGAUGUUGCACAGAGCACUUAUGACUAUGGCAGGCAGUUGCUACAGG	0.242 ratio

Some of these lines once more (set 3):
Sequence	lacZ reporter activity
FASPPDSNFVCSVCHGVLKRPARLPCSHIFCKKCILRWLARQKTCPCCRKEVKRKKVVH (RNF151 RING domain (UniProt Q2KHN1))	0
B1 (RNF170 RING domain)	0
B2 (IRF2BPL RING domain)	0
QLRRLQEERTCKVCMDKEVSVVFIPCGHLVVCQECAPSLRKCPICRGIIKGTVRTF (BIRC2 RING domain (UniProt Q13490))	0
